Published values collected from several papers.
Numbered parts are unrelated; each lists some results of a single study. Substitutions count along the parent as printed.

Study 1 — method: RNAcompete; form: RNA; medium: in vitro; tested at: 20 nM; setting: 7-mer, probes averaged, single round; relative to: mean of 7-mers; reading: higher = stronger binding
Target: PABPC1L2, full length, GST fusion (mouse, UniProt A0ABA7IW68)
Target sequence (chain): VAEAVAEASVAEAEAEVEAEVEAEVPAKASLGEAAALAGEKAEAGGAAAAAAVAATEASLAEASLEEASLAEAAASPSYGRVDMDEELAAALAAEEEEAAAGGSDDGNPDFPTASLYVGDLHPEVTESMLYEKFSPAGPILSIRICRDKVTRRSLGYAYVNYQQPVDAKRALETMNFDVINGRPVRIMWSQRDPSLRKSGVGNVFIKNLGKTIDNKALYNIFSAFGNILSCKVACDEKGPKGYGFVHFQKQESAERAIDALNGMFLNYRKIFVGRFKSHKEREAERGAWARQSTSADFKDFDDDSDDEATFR
Sequence	7-mer Z-score
GCAUCAC	0.0478
GUCUUUC	-0.536
CGCACCC	-0.46
ACCGAUG	-0.0718
AGGUCCC	-0.342
AGUGGAC	0.216
UUGGGAC	0.387
CCAUAGA	-0.0591
CUACAUU	-0.195
UCGCCUG	-0.44
GCUGCUA	-0.188

Study 2 — target: CCNB1, cyclin fold, Cln2 fusion (human); method: yeast growth competition, sequencing; medium: yeast; setting: strong parent motif; relative to: not given; reading: higher = stronger binding
Starting sequence: INSM1 docking peptide (human); PKAIRKLHFEDEV
Substitution	normalised enrichment score
PKAIRKTHFEDEV [L7T]	0.41
PKAIYKLHFEDEV [R5Y]	0.443
PKAIRKLKFEDEV [H8K]	1.97
PKAIRKLHFGDEV [E10G]	2.06
PKACRKLHFEDEV [I4C]	2.62
PKAIRKLAFEDEV [H8A]	1.14
PKAIRKLDFEDEV [H8D]	3.38
PKAIRKLNFEDEV [H8N]	3.12

Study 3 — method: universal PBM; form: double-stranded DNA, one strand shown; medium: in vitro; tested at: 600 nM; reading: higher = stronger binding
Target: Sal-like protein 4, full length isoform A (SALL4, Homo sapiens, UniProt Q9UJQ4, residues 1-1053)
UniProt Q9UJQ4, sequence (whole entry, looked up): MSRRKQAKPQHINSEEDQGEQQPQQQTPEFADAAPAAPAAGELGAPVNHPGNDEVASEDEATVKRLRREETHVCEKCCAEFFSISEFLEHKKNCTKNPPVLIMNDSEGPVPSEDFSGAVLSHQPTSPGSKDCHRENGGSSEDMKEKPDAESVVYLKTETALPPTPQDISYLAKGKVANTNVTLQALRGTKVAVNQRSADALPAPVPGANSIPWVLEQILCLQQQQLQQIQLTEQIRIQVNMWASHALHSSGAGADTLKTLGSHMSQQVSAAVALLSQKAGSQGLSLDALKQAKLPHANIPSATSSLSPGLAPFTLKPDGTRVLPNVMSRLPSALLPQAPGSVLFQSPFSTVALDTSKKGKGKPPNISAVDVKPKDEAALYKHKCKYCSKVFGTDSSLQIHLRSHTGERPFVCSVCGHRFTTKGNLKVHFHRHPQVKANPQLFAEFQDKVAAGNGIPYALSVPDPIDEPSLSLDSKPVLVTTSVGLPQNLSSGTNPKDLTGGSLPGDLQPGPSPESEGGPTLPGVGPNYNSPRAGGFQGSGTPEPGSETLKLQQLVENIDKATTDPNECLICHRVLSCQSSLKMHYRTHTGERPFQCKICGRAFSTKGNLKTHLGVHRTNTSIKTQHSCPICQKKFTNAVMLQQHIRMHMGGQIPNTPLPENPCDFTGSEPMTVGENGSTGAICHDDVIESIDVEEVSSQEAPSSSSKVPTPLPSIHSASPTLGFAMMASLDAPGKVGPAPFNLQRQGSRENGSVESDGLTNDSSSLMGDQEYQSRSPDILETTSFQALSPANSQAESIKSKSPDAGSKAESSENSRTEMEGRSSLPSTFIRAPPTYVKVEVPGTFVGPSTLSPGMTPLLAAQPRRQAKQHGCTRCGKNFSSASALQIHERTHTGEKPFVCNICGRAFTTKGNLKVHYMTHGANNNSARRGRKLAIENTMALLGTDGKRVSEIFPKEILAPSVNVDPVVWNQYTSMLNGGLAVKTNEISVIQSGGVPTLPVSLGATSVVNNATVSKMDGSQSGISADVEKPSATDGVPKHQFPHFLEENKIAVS
Setting: 8-mer, flanks averaged, mean of replicates
Sequence	E-score
AGTCACGG	-0.0646
CGTTCAAG	-0.0135
CCACGTTC	-0.245
ATCTCCGA	-0.0365
GGACCGCA	-0.267
CCGAGAGC	-0.215
ACACGCGA	-0.0257
GGGCGGAC	-0.345
AAGGATGA	0.21
TCTCCAAA	0.2

Single results of other studies
Substance	target	test	system	conditions	how to read	quantity	result
PhoQ, residues 284 288 289 292 302 303 TTCLQL	PhoP, residues 12 14 15 18 19 NYFTV (Escherichia coli, UniProt P23836)	Sort-seq, measured: YFP reporter	E. coli	PhoQ-PhoP variant library, together with: 10 µM Mg2+	relative to: high Mg2+ state, higher = stronger signaling	fold induction	8.9

Repeated from above (study 3):
Sequence	E-score
AGTCACGG	-0.0646
ATCTCCGA	-0.0365
